Assay results gathered from unrelated publications.
A part holds a random share of what one study measured.

Series 1 — method: RNA Bind-n-Seq; form: RNA; sample: in vitro; tested at: 200 nM; setting: whole 134-nt RNA, ends assumed; added: 150 mM LiCl; reference: input library; direction: higher = stronger binding; each molecule: 7-deaza-guanosine replaces G
Target: Fragile X messenger ribonucleoprotein 1, C-terminal low-complexity region (Fmr1, Mus musculus, UniProt P35922)
`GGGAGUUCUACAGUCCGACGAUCCAAGUCCUGUGCUACACAUCGUAUGUACCGAAUCGGGAGGGAAAAAGGGUUUGGGAAAGUAUUAUGUUACGCCGUUCGGAUCUGCACUUCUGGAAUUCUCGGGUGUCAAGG` has a log2 enrichment of -1.84.
`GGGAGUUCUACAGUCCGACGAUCAAGUCCUGUGCUACACAUCGUAUGUACCGAAUCAAACCCAAAUUUAAACCCCCAAAAAAGUAUUAUGUUACGCCGUUCGGAUCUGCACUUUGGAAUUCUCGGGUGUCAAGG` gave a log2 enrichment of 0.956.
The log2 enrichment of `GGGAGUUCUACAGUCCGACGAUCACCAGGCAGGUGGGCAUCUUUGGGAAGUGGGGCAAGGGGGGGAUAGGGAGGGGGGUAACACUUUGGGAACAGGUGGUCCCAGGUCGUUUCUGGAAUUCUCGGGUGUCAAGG` is reported as 1.54.
With `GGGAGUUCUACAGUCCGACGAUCUCCUGUGCUACACAUCGUAUGUACCGAAUCAAACCCCCCCAAACCCCCAAAUUUUUAAAAAAGUAUUAUGUUACGCCGUUCGGAUCUGCAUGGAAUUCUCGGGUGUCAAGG` the log2 enrichment was 1.39.
With `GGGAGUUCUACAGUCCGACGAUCUCCUGUGCUACACAUCGUAUGUACCGAAUCGGGGAAAGGGGAAAAAGGGGUUUUUGGGGAAAGUAUUAUGUUACGCCGUUCGGAUCUGCAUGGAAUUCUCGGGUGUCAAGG` the log2 enrichment was 0.334.
With `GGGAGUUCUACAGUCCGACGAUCUUUUUCCAGAGCUCACAACGACCUGGGGCUGAGGACAAUGUCCUCAAUGAGAUCGUGAGUAUCUUGCAGCCCACCCAGGUCCCUGAGCAGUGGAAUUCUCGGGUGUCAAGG` the log2 enrichment was -2.18.
`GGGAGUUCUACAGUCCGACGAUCAAGUCCUGUGCUACACAUCGUAUGUACCGAAUCGGAAAAAGGAAAAAAAGGUUUGGAAAGUAUUAUGUUACGCCGUUCGGAUCUGCACUUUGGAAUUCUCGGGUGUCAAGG` gave a log2 enrichment of -3.52.
The log2 enrichment of `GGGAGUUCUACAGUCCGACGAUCAGUGGGUUUGUUGAAGCAGUUGCUGGUGCAACAGCUAGGUUUGACUGAGAAGAGCGUUCAGGAAGACUGGCAACAUUUCCCAAGAUACAGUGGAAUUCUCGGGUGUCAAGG` is reported as -3.22.

Series 2 — method: protein binding microarray; form: double-stranded DNA, one strand shown; sample: in vitro; tested at: not given; reference: not given; direction: higher = stronger binding
Target: Histone acetyltransferase KAT6A, winged helix 1, GST fusion (KAT6A, Homo sapiens, UniProt Q92794, residues 1-85)
Setting: 8-mer, flanks averaged, mean of 2 arrays, mostly near background
Residues (chain): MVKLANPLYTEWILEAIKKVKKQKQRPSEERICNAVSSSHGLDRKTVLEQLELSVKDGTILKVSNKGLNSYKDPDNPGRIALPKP
The E-score of `GGATGGCA` is reported as 0.039.
`TCGGGGAA` gave an E-score of -0.0156.
With `CAGGAAAA` the E-score was -0.114.
With `GCCTTTCA` the E-score was 0.0312.
`CTTGCACC` gave an E-score of -0.0357.
The E-score of `ACTACTAC` is reported as 0.0359.
With `TGGCTGAA` the E-score was -0.228.
With `CACGGCGG` the E-score was 0.434.
`CAGATGGG` gave an E-score of -0.092.
`AACCCACA` gave an E-score of -0.139.
For `ACTCTTCA`, the E-score was -0.24.
`AGATCCCT` has an E-score of -0.176.
`ACAATCTC` gave an E-score of 0.0678.
With `GACAGCCC` the E-score was 0.14.
`ATCCCGGA` has an E-score of -0.072.
For `ACCTGTCG`, the E-score was 0.00557.
For `ACTTTTAG`, the E-score was -0.0123.
For `CAAGGTTA`, the E-score was -0.0492.
`CGCTCCTC` has an E-score of 0.131.
`CGGTCAGA` has an E-score of 0.0624.
With `CCTCCACC` the E-score was -0.0985.
For `CTTCAGCA`, the E-score was -0.175.
For `ACTTGTAC`, the E-score was -0.0503.
The E-score of `GATTACGA` is reported as -0.134.
`ATCATCAA` has an E-score of -0.119.

Series 3 — method: RNA Bind-n-Seq; form: RNA; sample: in vitro; tested at: 365 nM; reference: no-protein control; direction: higher = stronger binding
Target: RNA binding protein fox-1 homolog 2, RRM domain, GST-SBP tag (RBFOX2, Homo sapiens, UniProt O43251-10, residues 100-194)
Setting: natural RNA segment, single round, ends assumed
Target sequence (chain): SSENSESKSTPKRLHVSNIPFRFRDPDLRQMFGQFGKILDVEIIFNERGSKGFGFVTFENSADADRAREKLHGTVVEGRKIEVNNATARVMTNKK
`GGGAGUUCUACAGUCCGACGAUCACAUCUUUCUUCUCCAUCACUCCACGCCUCCAUCCAAGCUCAGUUUCCACUCGCCCACCAGAAGCAGCUCUAGUCACCUGCACAACCGCUUCCAUGACCUUGGAGGUAUAUGGAAUUCUCGGGUGCCAA` — result for “RBNS enrichment (R)”: 0.486.
Under “RBNS enrichment (R)”, `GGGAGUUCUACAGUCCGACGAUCGAGACCCCACUCUGACAGUGGGCACACGGCAGCCUGCAAAGCACAGGGCCACCGCCACAGCCCGGCAGAGGGGCACACUCUGGAGACCUUGCUGGCAGUGCUAGCCAGGAUGGAAUUCUCGGGUGCCAA` is recorded as 0.187.
`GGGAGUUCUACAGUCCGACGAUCUGCUGCCUCCCCAGCAGGAACAAUAGUCAUAAAUGCACUUUUCACACUAAAGGUUUCUUUAUUAGUUCUCCAGUUAAACCUAGAUCCCUCCCUGGUAGAUUGCGAACUCAUGGAAUUCUCGGGUGCCAA`: “RBNS enrichment (R)” 0.807.
Under “RBNS enrichment (R)”, `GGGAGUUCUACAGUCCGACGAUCCUCCUUGGCAAAGCCAUCUAGGUUCCAGGUGGGUGUCAUGCAUACCACAUGUGCACAGAGCCAGCUGCAGAGGGCACCACAAGGGCACCUUAACCAGCUCCUGAUCUCAAUGGAAUUCUCGGGUGCCAA` is recorded as 0.19.
`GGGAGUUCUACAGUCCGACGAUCUGUUUUCUCUCUGUCGCCUUGUUUUGUACCUGGGUCUCGCUUUACUAGACCGUCUCUGCACAAAAGUUUAAAAACUGAACCGUAUGCAGAGUUCCGAAGCAAGUCAAGUUUGGAAUUCUCGGGUGCCAA` — result for “RBNS enrichment (R)”: 0.436.
`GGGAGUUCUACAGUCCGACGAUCACCUUGUAAUGUAACUGCUCUUGGGCAAUAUUCUCUGUACAUAUUAGCGACAACAGAUUGGAUUUUAUGUUGACAUUUGUUUGGUUAUAGUGCAAUAUAUUUUGUAUGCAUGGAAUUCUCGGGUGCCAA`: “RBNS enrichment (R)” 4.8.
For `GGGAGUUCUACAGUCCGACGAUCCACUUCAGAGUUUGGGGUUUUGUCUUGAUUGUAGAUUGGCCCAGAAUUGCAUUCUGAUGAAUAAAGGAAAAAAAAAAAAAAAAUCCCAUGGUGUGCAUUUCUCUAUGAUGUGGAAUUCUCGGGUGCCAA`, “RBNS enrichment (R)” read 1.25.
`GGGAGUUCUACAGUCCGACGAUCCAUGAAAAAUAUGACUAACCUGUGGUGUGUCCAUUCUUCCUUAUAGGAAUUUCCUGAGUUUGCAGGAGACAUGAGAGCAGUUUUUAGCGAGUAUUUUAGUGGGAAGUUGCUGGAAUUCUCGGGUGCCAA` — result for “RBNS enrichment (R)”: 0.377.

Series 4 — method: competition protein-binding microarray; form: double-stranded DNA, one strand shown; sample: in vitro; tested at: 2 µM; added: Pho4 competitor, 0.05 µM; direction: higher = stronger binding
Target: Centromere-binding protein 1, full length, His-tagged (CBF1, Saccharomyces cerevisiae, UniProt P17106, residues 1-351)
Chain of UniProt P17106 (whole entry, looked up): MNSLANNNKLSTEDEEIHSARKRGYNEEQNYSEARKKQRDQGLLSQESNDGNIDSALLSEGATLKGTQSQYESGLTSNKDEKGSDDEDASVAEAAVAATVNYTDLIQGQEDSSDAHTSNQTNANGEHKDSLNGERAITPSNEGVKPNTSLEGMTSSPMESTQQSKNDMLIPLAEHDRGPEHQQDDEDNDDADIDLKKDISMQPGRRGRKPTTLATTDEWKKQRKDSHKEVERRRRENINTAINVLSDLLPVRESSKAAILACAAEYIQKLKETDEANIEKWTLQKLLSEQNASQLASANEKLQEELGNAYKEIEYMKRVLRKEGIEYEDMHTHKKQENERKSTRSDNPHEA
Setting: whole 60-bp probe, lowest competitor level
With `TTCCTAGACTGGTCCCACGTTGGGAAAAACCAATCAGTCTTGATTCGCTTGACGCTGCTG` the fluorescence intensity was 86.3 a.u.
For `CATACCCAACCTTGAGTAGTGGGTGAAGATATTTGTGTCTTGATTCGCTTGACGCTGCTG`, the fluorescence intensity was 63.7 a.u.
`ACCCCGCTTCCACCGCCGTTGTTGTTGTTGTTGTTGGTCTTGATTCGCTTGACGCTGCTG` gave a fluorescence intensity of 79.4 a.u.
The fluorescence intensity of `GTCATCGACCTTGAGCATGTGGTAGACTACATAATGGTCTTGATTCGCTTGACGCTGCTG` is reported as 129 a.u.
For `TAGCACAGGCACCCGCACACGCAGAGCTCACAGACCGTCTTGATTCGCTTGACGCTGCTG`, the fluorescence intensity was 74.9 a.u.
`TGCGCAACAACTTGTCACGCCACTTTATGTCTAGAAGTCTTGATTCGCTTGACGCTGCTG` gave a fluorescence intensity of 320 a.u.
`ATTACGAGTTTTTCATCCGTGATGGCGATGATTTGGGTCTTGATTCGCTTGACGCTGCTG` gave a fluorescence intensity of 69.7 a.u.
The fluorescence intensity of `CGTCCTAGCGATTGATACGTGGGTGCCATGAGGAAGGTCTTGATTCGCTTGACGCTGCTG` is reported as 98.7 a.u.
`CCGAGTCAAGAACATCACATGTTCATAATAACCGCAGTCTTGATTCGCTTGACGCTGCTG` has a fluorescence intensity of 1490 a.u.
`AGATCTTCGAAGAACCACATGTTGGATGACCGGGCAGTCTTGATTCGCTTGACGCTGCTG` has a fluorescence intensity of 78.7 a.u.
`CTAACGAAGGTTTACCACGTGTTTTACAAGCCAAGTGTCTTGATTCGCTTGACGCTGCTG` has a fluorescence intensity of 1110 a.u.
`AAAAGAGAAGATACCCACGTGCCGAAAAAATAAAGTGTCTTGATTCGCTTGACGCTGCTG` gave a fluorescence intensity of 1960 a.u.
For `CTTCTGTAAATTTGAGGGGTGGGTGGACGCGCCCCGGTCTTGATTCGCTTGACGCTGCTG`, the fluorescence intensity was 90.6 a.u.
`TTATTGCTGTTAGGACCCGTGATGGGTTCGTAGATCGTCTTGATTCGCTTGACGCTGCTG` has a fluorescence intensity of 162 a.u.
With `CATTGGCAGAACCCGATCGTGGGACAGAACACCAACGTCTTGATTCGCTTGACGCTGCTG` the fluorescence intensity was 62.8 a.u.
For `CACCGAATTTCCTGGCACGATCGTTGTTACCAGCTGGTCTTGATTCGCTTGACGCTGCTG`, the fluorescence intensity was 88.4 a.u.
With `TTTACTAGTAATTTGCACGTGATGGGGCGAGATGGTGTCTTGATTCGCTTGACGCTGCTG` the fluorescence intensity was 3190 a.u.
`GAGCCCGTAATCCAACACGTTTGATATTTTGTGCGAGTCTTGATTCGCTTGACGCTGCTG` has a fluorescence intensity of 98.7 a.u.
